Measurements pooled from the literature.
Numbered parts are unrelated; each lists some results of a single study. Changes are numbered by the printed parent chain.

Block 1
Target: CCNE1, cyclin fold, Cln2 fusion (human)
Technique: yeast growth competition, sequencing
Sample: yeast
Setting: strong parent motif
Reference: not given
Direction: higher = stronger binding
Endpoint: normalised enrichment score
Parent: CDKN1B docking peptide (human); PSACRNLFGPVDH; partner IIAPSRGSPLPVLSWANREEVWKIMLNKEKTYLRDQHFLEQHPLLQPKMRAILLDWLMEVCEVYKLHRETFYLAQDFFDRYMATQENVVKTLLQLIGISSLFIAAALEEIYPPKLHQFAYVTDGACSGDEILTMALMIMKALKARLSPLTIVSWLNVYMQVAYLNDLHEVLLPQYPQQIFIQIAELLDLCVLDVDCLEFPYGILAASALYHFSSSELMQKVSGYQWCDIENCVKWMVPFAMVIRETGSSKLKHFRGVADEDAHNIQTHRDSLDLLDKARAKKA
Change = S2P; result = 2.67
Change = V11H; result = 3.6
Change = L7V; result = 0.617
Change = V11M; result = 2.46
Change = D12Q; result = 3.13
Change = H13G; result = 2.84
Change = S2K; result = 3
Change = H13F; result = 3.84

Block 2
Target: RNA binding protein fox-1 homolog 2, RRM domain, GST-SBP tag (RBFOX2, Homo sapiens, UniProt O43251-10, residues 100-194)
Technique: RNA Bind-n-Seq
Molecule type: RNA
Sample: in vitro
Tested at: 365 nM
Setting: natural RNA segment, single round, ends assumed
Reference: no-protein control
Direction: higher = stronger binding
Endpoint: RBNS enrichment (R)
All sequences stand within: GGGAGUUCUACAGUCCGACGAUC … UGGAAUUCUCGGGUGCCAA
Residues (chain): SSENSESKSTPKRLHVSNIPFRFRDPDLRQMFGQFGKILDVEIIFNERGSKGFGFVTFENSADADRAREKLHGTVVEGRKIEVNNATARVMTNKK
Sequence = UCCCGAGCUCCCUCUGGGGACGGCUGGCUCACUGUCUCCAGUUCUCAAUGGCCAACGAAGGUGCUUGGAAACACCUAACCUUGCAAGUUUUACCGCCUUUUGAGGAACAC; result = 0.466
Sequence = CUAUCCGACUUGCCUAUCCUCAAAGAUAAGAAGUUGGUGUUCAGCUUAGUUGAUUCAGUAGUUGUUACCAAGAAACAUAUGUUAUAGGAAAACAACUUGGUAUUUAAGUA; result = 0.279
Sequence = CAGCAACCCUGUUCACGCUCCACCUGUCUGGUCCAUAGCUCCCUGGAGGCUGGGCCAGGAGGCAGCCUCCGAACCAUGCCCCAUAUAACGCUUGGGUGCGUGGGAGGGCG; result = 0.298
Sequence = CUCAGCUAUCCUUCUAAUUUCUCUCUAAUUUCAAUUUGUUUAUAUUUACCUCUGGGCUCAAUAAGGGCAUCUGUGCAGAAAUUUGGAAGCCAUUUAGAAAAUCUUUUGGA; result = 0.626
Sequence = GCUCAGAGAUACUGAUAUGGAUGUGGGAGGGCUCUAAAGUUAGAGGUCACCAACUCCACAGAUGAAACAGUUCAAUAAUGAGGAAACAGGUGAGCCCUGAAAACACAAAA; result = 0.436
Sequence = UGCCUGCGCCCGCUCACCAAGGGGUCCUUCCAGGAGCGCGCCGGCAAGCCCUACUGCCAGCCCUGCUUCCUGAAGCUCUUCGGCUGACAGCCCGCUCGGCUCGCCCUCUC; result = 0.224
Sequence = GAAGAGGUUGAGUUUGCUGCCAGGAUUCAGAUCAGCCCUUCCCAGGGUCUGCAGGUGUCACAUGAUCACAGUUCAGCGGGAGGCUUUCCGUACCCACACUGGCUGUAGCC; result = 0.811
Sequence = GUUGUGGCCCUGGGGCCCAGCCCCAAACUGGGGGCUCUGUAUAUAGCUAUGAAGAAAACACAAAGUGUAUAAAUCUGAGUAUAUAUUUACAUGUCUUUUUAAAAGGGUCG; result = 0.407
Sequence = CCAAAGACCCUCCAUCACGAAGAGCACUUUACAGAUAAGAAUCUUCCUCCCCAGUUCUUCAUGCCUCCUUCCUGCCCUUUCCUUACUUUGUGUUGGAUUUGUUUUCCAAA; result = 1.17
Sequence = GAGCUAACAUAUUUAAUUAAAUAAAUAAAUCUGGGUCUGCAUCUCUUAUUAAAUAAAAAUAUAAAAAUAUGUACAUUACAUUUUGCUUAUUUUCAUAUAAAAGGUAAGAA; result = 1.01
Sequence = GUUCAUGCUCAGCCCUGAACUCUAAUCUAGCCUGCAACCAGCCCUUCUCUCCUCUUAUCAUCUAACAUACCCUACUUGGAAAGAUCUAAGAUCUCAAUCUUAUCCUUUGC; result = 0.53
Sequence = GCUAAGUUAAUCAGAAAUUGCGAGCAUGCACAGUGGUAUGCCAGCCUGGGUGAUGCUUUCCUAGGAGAGCCGGUAUUUGCUUGUAAGGGAAAGAAUGGUAUUGUAGAAAA; result = 4.14

Block 3
Target: RING finger protein unkempt homolog, zinc fingers 1-6, GST-SBP tag (UNK, Homo sapiens, UniProt Q9C0B0, residues 30-357)
Technique: RNA Bind-n-Seq
Molecule type: RNA
Sample: in vitro
Tested at: not given
Setting: RNA with constant flanks, human and mouse sites, ends assumed
Reference: input RNA pool
Direction: higher = stronger binding
Endpoint: bound/input enrichment
All sequences stand within: GGGAGUUCUACAGUCCGACGAUC … CAACAGAGGAUUGAGCAUCA
Target sequence (chain): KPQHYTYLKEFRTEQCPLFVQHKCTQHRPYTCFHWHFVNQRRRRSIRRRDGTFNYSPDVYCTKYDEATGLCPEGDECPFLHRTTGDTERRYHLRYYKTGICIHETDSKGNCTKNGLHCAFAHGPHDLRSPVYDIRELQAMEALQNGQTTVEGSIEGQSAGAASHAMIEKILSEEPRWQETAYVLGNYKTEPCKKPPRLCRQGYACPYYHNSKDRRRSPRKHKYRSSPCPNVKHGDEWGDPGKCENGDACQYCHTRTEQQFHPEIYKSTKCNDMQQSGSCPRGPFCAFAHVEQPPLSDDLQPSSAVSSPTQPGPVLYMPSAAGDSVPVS
Sequence = GCUGAGGGAGUCGACUUAAUUAAGGUCUUCGCAAAAACAGAAGCACAGAGAGGAGCAUAUAUAGAAUUAGCACUUCAAACUUAUCAAGAAAUAGUUACCAGUCAUUCCGCAGCAUCCUGA; result = 4.66 ratio
Sequence = AAAAGCACAAGUGUUCGAACUUCAACUUUUUACUCCAGACUGAGGCUACCCAGGGACAGACUUAGUGGCAGCAGGGUUGCAUCAGCACUGGUCACUCCAGUCCAGCCUGUGUGUAAAAUC; result = 0.271 ratio
Sequence = AUAAUGAUGCUUUGCGAGGCUCGAAGAGCAGUUCAGAAGAAUAUGAUAUUUAUUGAUCAAAAUAGAGUUAUGCUUAAAUAUCUCUUUCCUUUGAAUGAAAUUGUGGUAGAUUUUUAUGAC; result = 2.17 ratio
Sequence = AAACGGGAUGUGCUUUGUGGUUACCUUUUGUGUACCAAUAUUGGCAAUAUCCCAAGGCUUGGAGAACUCGAUGGUGAAAUCACAUCUACUUUAGUUGUGCAGCAAGGAAGAACAUUAAAC; result = 0.179 ratio
Sequence = GUAGCUAAGUUUCUUGAUGCUUCUGGAGCAAAACUUGACUACCGCCGCUAUGCAGAAACACUCUUUGACAUUCUGGUGGCUGGCGGAAUGCUGGCCCCGGGUGGUACACUGGCAGAUGAC; result = 0.178 ratio
Sequence = GUCUGGAGUCUCUCGGGACACGACCAGCUGAUUGUAGACACCGUGUUGAUAUCACUAGAAAUGAAGACCUUGUCAACCAAUAGAGGAACUGUCUGAACCAACUGGGUACUGAUGUCUCUG; result = 0.286 ratio
Sequence = CUGCUCCUCUCCUGGGCGGCGGGGAUGGGAGGUCAGUAUGGGAAUCCUUUAAAUAAAUAUAUCAGACAUUAUGAAGGAUUAUCUUACAAUGUGGAUUCAUUACACCAAAAACACCAGCGU; result = 0.231 ratio
Sequence = GAGCAGAGCUCGCCCCAGUCGGCCAAGCAGAAGUGUGUGUGUCUGGCUGUGGAAGAUUGGGAUUUGCUCAAUUCCUACUGACUGACACAUACAGUCGACCUCCCCCACCUCAGUACGAGG; result = 0.0517 ratio
Sequence = AUCCAGUACUCGAAUCACAAAGAACUAAAGACAGAUAAUACAUUAAACCAACGUGCUCAGGCAGUUCUUCAAGCUGUGACAGCUGUCCAGACAGCAAAUACUCCUCUUAGUGGCACCACA; result = 0.287 ratio
Sequence = UAUUUUUACAGCCACACAAUUCUUGGCAUGUAUUAAGAAAAAAAAAAAUCCCUGUUCAAGUAGUUUUUCCACCUAUCAGCACUGAGUAAAUGCCAUAAAUCCAUUGAAAUGGUCUAAAUG; result = 0.245 ratio

Other studies, line by line
Substance = PhoQ, residues 284 288 289 292 302 303 SNSSNI; target = PhoP, residues 12 14 15 18 19 NQFFI (Escherichia coli, UniProt P23836); test = Sort-seq, measured: YFP reporter; test system = E. coli; conditions = PhoQ-PhoP variant library, added: 10 µM Mg2+; scale = reference: high Mg2+ state, higher = stronger signaling; endpoint = fold induction; result = 9.95

Some of these lines once more (block 2):
Sequence = GCUAAGUUAAUCAGAAAUUGCGAGCAUGCACAGUGGUAUGCCAGCCUGGGUGAUGCUUUCCUAGGAGAGCCGGUAUUUGCUUGUAAGGGAAAGAAUGGUAUUGUAGAAAA; result = 4.14
Sequence = UCCCGAGCUCCCUCUGGGGACGGCUGGCUCACUGUCUCCAGUUCUCAAUGGCCAACGAAGGUGCUUGGAAACACCUAACCUUGCAAGUUUUACCGCCUUUUGAGGAACAC; result = 0.466
Sequence = CUAUCCGACUUGCCUAUCCUCAAAGAUAAGAAGUUGGUGUUCAGCUUAGUUGAUUCAGUAGUUGUUACCAAGAAACAUAUGUUAUAGGAAAACAACUUGGUAUUUAAGUA; result = 0.279
Sequence = UGCCUGCGCCCGCUCACCAAGGGGUCCUUCCAGGAGCGCGCCGGCAAGCCCUACUGCCAGCCCUGCUUCCUGAAGCUCUUCGGCUGACAGCCCGCUCGGCUCGCCCUCUC; result = 0.224
